{"data": "Assay results collected from several papers", "note": "Numbered parts are unrelated; each lists some results of a single study. Substitutions count along the parent as printed."}
{"data": "Block 1", "target": "UDP-N-acetylglucosamine--peptide N-acetylglucosaminyltransferase 110 kDa subunit (OGT, Homo sapiens, UniProt O15294)", "read-out": "binding", "technique": "phage display NGS", "molecule type": "peptide", "tested at": "concentration not given", "setting": "panning round 4", "reference": "input library", "UniProt O15294, sequence (whole entry, looked up)": "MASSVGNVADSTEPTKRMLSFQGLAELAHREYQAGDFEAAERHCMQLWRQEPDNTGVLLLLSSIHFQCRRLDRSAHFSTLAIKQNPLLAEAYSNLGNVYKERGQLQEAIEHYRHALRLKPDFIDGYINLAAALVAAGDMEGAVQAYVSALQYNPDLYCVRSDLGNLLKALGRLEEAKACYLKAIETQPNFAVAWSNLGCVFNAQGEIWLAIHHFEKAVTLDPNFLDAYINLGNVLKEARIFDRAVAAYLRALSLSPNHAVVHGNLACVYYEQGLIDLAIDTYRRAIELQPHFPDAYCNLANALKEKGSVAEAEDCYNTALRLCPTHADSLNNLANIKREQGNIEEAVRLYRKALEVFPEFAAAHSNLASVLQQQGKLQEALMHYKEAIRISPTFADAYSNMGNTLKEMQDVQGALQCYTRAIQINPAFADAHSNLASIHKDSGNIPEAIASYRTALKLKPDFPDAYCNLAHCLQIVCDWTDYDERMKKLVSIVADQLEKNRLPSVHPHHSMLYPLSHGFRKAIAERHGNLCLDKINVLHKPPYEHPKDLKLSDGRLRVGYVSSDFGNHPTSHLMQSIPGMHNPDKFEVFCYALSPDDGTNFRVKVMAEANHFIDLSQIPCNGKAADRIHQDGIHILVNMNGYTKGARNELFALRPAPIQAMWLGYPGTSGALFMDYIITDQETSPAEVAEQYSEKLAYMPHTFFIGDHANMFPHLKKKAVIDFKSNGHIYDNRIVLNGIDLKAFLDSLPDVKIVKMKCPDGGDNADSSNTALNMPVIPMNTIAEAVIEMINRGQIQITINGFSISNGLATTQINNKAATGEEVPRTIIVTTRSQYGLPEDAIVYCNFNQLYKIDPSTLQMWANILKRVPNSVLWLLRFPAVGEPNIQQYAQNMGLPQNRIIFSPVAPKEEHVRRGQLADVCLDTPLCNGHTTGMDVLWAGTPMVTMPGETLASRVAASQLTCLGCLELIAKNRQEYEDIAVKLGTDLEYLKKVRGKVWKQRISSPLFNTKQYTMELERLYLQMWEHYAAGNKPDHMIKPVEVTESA"}
{"Molecule": "NQQQPQYQILYAANR", "enrichment fold change": 1.59}
{"Molecule": "DMMAFYPKYSIAYSR", "enrichment fold change": 1.76}
{"Molecule": "TDPFYPPAYQIQVFK", "enrichment fold change": 1.56}
{"Molecule": "QDFKPMYQIKIRSHA", "enrichment fold change": 2.36}
{"Molecule": "DYTRYDPKYQIRYFR", "enrichment fold change": 2.77}
{"Molecule": "VQSKLMPAYQIQYKM", "enrichment fold change": 1.83}
{"Molecule": "QEARSRFTPMYQITI", "enrichment fold change": 1.7}
{"data": "Block 2", "target": "CCND1, cyclin fold, Cln2 fusion (human)", "technique": "yeast growth competition, sequencing", "matrix": "yeast", "setting": "weak parent motif", "reference": "not given", "reading": "higher = stronger binding", "starting sequence": "viral docking peptide; CKVKRKLFGSENI; partner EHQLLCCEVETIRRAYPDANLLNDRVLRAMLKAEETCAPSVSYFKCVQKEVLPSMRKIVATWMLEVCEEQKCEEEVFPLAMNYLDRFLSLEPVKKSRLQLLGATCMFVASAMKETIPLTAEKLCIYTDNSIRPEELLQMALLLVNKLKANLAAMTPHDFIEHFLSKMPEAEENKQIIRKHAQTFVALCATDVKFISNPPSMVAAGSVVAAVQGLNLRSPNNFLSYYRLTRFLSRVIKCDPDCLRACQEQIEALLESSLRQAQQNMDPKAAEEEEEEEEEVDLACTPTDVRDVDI"}
{"Variant": "CKVKAKAFGSENI [R5A L7A]", "normalised enrichment score": 0.288}
{"Variant": "CKVKAKLFGSENI [R5A]", "normalised enrichment score": 0.0553}
{"Variant": "CKVKRKLAGSENI [F8A]", "normalised enrichment score": 0.00921}
{"Variant": "CKVARKLFGSENI [K4A]", "normalised enrichment score": 0.78}
{"Variant": "CAVKRKLFGSENI [K2A]", "normalised enrichment score": 0.586}
{"Variant": "CKVKRKLFGAENI [S10A]", "normalised enrichment score": 0.456}
{"Variant": "CKVKKKLFGSENI [R5K]", "normalised enrichment score": -0.428}
{"Variant": "CKVKRKLFASENI [G9A]", "normalised enrichment score": 0.851}
{"Variant": "AKVKRKLFGSENI [C1A]", "normalised enrichment score": 0.938}
{"Variant": "CKVKRKLLGSENI [F8L]", "normalised enrichment score": 0.14}
{"data": "Block 3", "target": "Fragile X messenger ribonucleoprotein 1, C-terminal low-complexity region (Fmr1, Mus musculus, UniProt P35922)", "technique": "RNA Bind-n-Seq", "molecule type": "RNA", "matrix": "in vitro", "tested at": "200 nM", "setting": "whole 134-nt RNA, ends assumed", "with": "150 mM LiCl", "reference": "input library", "reading": "higher = stronger binding", "all molecules": "7-deaza-guanosine replaces G", "shared flanks, not repeated": "GGGAGUUCUACAGUCCGACGAUC … UGGAAUUCUCGGGUGUCAAGG"}
{"Strand": "UCCUGUGCUACACAUCGUAUGUACCGAAUCGGGUUUUUUGGGUUUUUUGGGGUUUUUUGGAAAGUAUUAUGUUACGCCGUUCGGAUCUGC", "log2 enrichment": 0.14}
{"Strand": "UUGUUUGAAACAGCAACGCUUCGGUCAGGGUAUCUUUUACCAGACACUAAAGCAUAUGGAGAUAGAAUAGAAAGAAUGCUUCGCCUCAGU", "log2 enrichment": -2.2}
{"Strand": "UUGCCCUGGUGGCAUGCGGGGAGGAAGAGGUGGCCUCAUGGAUCGUGGUGGUCCCGGUGGAAUGUUCAGAGGUGGCCGUGGUGGAGACAG", "log2 enrichment": 0.26}
{"Strand": "CUCAAGUCCUGUGCUACACAUCGUAUGUACCGAAUCGGGGUUGGUUGGGUUGGAAAGUAUUAUGUUACGCCGUUCGGAUCUGCACUUCCA", "log2 enrichment": -0.547}
{"Strand": "CACAGACAACACGCAAAAACACAGACACAGAGGGAAGGGGUUGGGAUGGGGACAGGGUGCACAGCAGGGCGGGGUAGGACCCCAGCCCCU", "log2 enrichment": 1.06}
{"Strand": "UCAAGUCCUGUGCUACACAUCGUAUGUACCGAAUCGGUGGAAAAAAAGGUUUGGAAAGUAUUAUGUUACGCCGUUCGGAUCUGCACUUCC", "log2 enrichment": -1.82}
{"Strand": "UGGCCCUGGUGGCAUGCGGGGAGGAAGAGGUGGCCUCAUGGAUCGUGGUGGUCCGGGUGGAAUGUUCAGAGGUGGCCGUGGUGGAGACAG", "log2 enrichment": -0.138}
{"Strand": "GUCCUGUGCUACACAUCGUAUGUACCGAAUCGGGUUUUUGGGUUUGGGAAAAAAAGGGAAAGUAUUAUGUUACGCCGUUCGGAUCUGCAC", "log2 enrichment": -2.04}
{"data": "Block 4", "target": "vanadate, free oxyanion", "technique": "microfluidic competitive inhibition", "matrix": "in vitro, cell-free expressed", "tested at": "not given", "setting": "derived from inhibition constants, unchanged parent 676 nM", "reading": "lower = stronger binding", "starting sequence": "PafA, mature enzyme, eGFP fusion (Elizabethkingia meningoseptica, UniProt Q9KJX5); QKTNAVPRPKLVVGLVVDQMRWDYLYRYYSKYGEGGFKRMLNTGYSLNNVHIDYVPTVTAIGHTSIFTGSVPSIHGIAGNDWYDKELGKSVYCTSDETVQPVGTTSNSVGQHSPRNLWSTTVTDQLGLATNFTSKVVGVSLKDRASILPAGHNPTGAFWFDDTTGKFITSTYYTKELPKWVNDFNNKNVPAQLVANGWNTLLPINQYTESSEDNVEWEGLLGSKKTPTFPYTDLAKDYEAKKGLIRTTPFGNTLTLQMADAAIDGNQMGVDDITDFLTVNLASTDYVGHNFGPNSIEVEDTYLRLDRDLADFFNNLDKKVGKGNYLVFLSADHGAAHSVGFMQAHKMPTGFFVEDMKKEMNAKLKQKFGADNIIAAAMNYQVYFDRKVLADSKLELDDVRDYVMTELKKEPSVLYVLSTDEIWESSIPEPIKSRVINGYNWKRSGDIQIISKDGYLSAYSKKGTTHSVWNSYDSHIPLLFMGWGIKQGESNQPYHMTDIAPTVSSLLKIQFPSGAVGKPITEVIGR"}
{"Variant": "A259G", "oxyanion analog dissociation constant": "0.807 µM"}
{"Variant": "G463A", "oxyanion analog dissociation constant": "0.627 µM"}
{"Variant": "K486V", "oxyanion analog dissociation constant": "0.717 µM"}
{"Variant": "V279G", "oxyanion analog dissociation constant": "4.07 µM"}
{"Variant": "D124V", "oxyanion analog dissociation constant": "5.11 µM"}
{"Variant": "E209V", "oxyanion analog dissociation constant": "0.712 µM"}
{"Variant": "V270G", "oxyanion analog dissociation constant": "0.68 µM"}
{"Variant": "G484A", "oxyanion analog dissociation constant": "0.604 µM"}
{"Variant": "F368V", "oxyanion analog dissociation constant": "0.849 µM"}
{"Variant": "M40V", "oxyanion analog dissociation constant": "0.643 µM"}
{"Variant": "Y455G", "oxyanion analog dissociation constant": "0.539 µM"}
{"Variant": "I273G", "oxyanion analog dissociation constant": "0.898 µM"}
{"Variant": "A282G", "oxyanion analog dissociation constant": "3.12 µM"}
{"Variant": "K365V", "oxyanion analog dissociation constant": "0.881 µM"}
{"Variant": "F341V", "oxyanion analog dissociation constant": "0.716 µM"}
{"Variant": "I296G", "oxyanion analog dissociation constant": "1.02 µM"}
{"Variant": "A370G", "oxyanion analog dissociation constant": "0.689 µM"}
{"Variant": "L25V", "oxyanion analog dissociation constant": "0.71 µM"}
{"Variant": "T497G", "oxyanion analog dissociation constant": "0.478 µM"}
{"Variant": "A377G", "oxyanion analog dissociation constant": "0.511 µM"}
{"Variant": "Y325G", "oxyanion analog dissociation constant": "2.59 µM"}
{"Variant": "T98G", "oxyanion analog dissociation constant": "0.629 µM"}
{"Variant": "T130G", "oxyanion analog dissociation constant": "0.819 µM"}
{"Variant": "D398G", "oxyanion analog dissociation constant": "0.642 µM"}
{"Variant": "L329G", "oxyanion analog dissociation constant": "1.77 µM"}
{"note": "Excerpt of the above (block 3):"}
{"Strand": "CUCAAGUCCUGUGCUACACAUCGUAUGUACCGAAUCGGGGUUGGUUGGGUUGGAAAGUAUUAUGUUACGCCGUUCGGAUCUGCACUUCCA", "log2 enrichment": -0.547}
{"Strand": "UCAAGUCCUGUGCUACACAUCGUAUGUACCGAAUCGGUGGAAAAAAAGGUUUGGAAAGUAUUAUGUUACGCCGUUCGGAUCUGCACUUCC", "log2 enrichment": -1.82}
{"Strand": "GUCCUGUGCUACACAUCGUAUGUACCGAAUCGGGUUUUUGGGUUUGGGAAAAAAAGGGAAAGUAUUAUGUUACGCCGUUCGGAUCUGCAC", "log2 enrichment": -2.04}
{"Strand": "UUGUUUGAAACAGCAACGCUUCGGUCAGGGUAUCUUUUACCAGACACUAAAGCAUAUGGAGAUAGAAUAGAAAGAAUGCUUCGCCUCAGU", "log2 enrichment": -2.2}
{"Strand": "UGGCCCUGGUGGCAUGCGGGGAGGAAGAGGUGGCCUCAUGGAUCGUGGUGGUCCGGGUGGAAUGUUCAGAGGUGGCCGUGGUGGAGACAG", "log2 enrichment": -0.138}
{"Strand": "CACAGACAACACGCAAAAACACAGACACAGAGGGAAGGGGUUGGGAUGGGGACAGGGUGCACAGCAGGGCGGGGUAGGACCCCAGCCCCU", "log2 enrichment": 1.06}
{"Strand": "UCCUGUGCUACACAUCGUAUGUACCGAAUCGGGUUUUUUGGGUUUUUUGGGGUUUUUUGGAAAGUAUUAUGUUACGCCGUUCGGAUCUGC", "log2 enrichment": 0.14}
